Assay results from different studies.
Numbered parts are unrelated; each lists some results of a single study. Changes are numbered by the printed parent chain.

Study 1 — target: CREB3L3, bZIP domain (human); technique: DHFR protein complementation; medium: yeast; relative to: wild-type JUN-FOS pair; direction: higher = stronger binding
Setting: single substitutions, most at no-binding floor
Starting sequence: JUN, bZIP domain (human); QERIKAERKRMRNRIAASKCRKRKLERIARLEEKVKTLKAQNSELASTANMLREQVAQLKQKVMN; partner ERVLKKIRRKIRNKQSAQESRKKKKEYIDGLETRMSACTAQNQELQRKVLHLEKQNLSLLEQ
| Substitution | binding fitness [natural log] |
| --- | --- |
| K39S | -1.44 |
| A49D | -1.57 |
| M51S | -1.52 |
| Q55E | -1.64 |
| A49Y | -1.5 |
| T48A | -1.47 |
| E33T | -1.49 |
| A46I | -1.51 |

Study 2 — technique: RNA Bind-n-Seq; form: RNA; medium: in vitro; concentration: 200 nM; setting: whole 134-nt RNA, ends assumed; added: 150 mM KCl; relative to: input library; direction: higher = stronger binding
Target: Ras GTPase-activating protein-binding protein 1, full length (G3BP1, Homo sapiens, UniProt Q13283)
Sequence of UniProt Q13283 (whole entry, looked up): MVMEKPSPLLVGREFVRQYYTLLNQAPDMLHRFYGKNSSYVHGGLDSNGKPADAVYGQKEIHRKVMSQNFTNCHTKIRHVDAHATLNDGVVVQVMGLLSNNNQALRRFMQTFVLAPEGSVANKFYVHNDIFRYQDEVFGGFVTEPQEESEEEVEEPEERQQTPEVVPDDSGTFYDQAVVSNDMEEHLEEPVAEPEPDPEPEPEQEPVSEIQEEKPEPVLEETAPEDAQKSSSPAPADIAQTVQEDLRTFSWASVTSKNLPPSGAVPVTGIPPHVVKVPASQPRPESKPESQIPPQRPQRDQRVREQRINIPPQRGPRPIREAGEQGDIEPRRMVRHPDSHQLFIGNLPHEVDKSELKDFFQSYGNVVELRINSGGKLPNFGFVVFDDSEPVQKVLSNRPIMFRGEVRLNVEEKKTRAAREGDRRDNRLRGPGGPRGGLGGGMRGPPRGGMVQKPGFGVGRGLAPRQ
| Strand | log2 enrichment |
| --- | --- |
| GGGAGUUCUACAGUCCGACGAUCUGGCCCUGGUGGCAUGCGGGGAGGAAGAGGUGGCCUCAUGGAUCGUGGUGGUACCGGUGGAAUGUUCAGAGGUGGCCGUGGUGGAGACAGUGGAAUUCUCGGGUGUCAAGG | 0.254 |
| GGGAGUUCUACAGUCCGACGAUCACCAUGCAGGUGGGCAUCUUUGGGAAGUGGGGCAAAAAGGGGAUAGGGAGGGGGGUAACACUUUGGGAACAGGUGGUCCCAGGUCGUUUCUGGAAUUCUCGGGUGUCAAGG | 0.849 |
| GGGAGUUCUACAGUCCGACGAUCUCCUGUGCUACACAUCGUAUGUACCGAAUCGGGGAAAAAGGGGAAAAAGGGGAAAAAGGGAAAGUAUUAUGUUACGCCGUUCGGAUCUGCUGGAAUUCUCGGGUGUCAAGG | 0.181 |
| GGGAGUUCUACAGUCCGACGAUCCCUCAAGUCCUGUGCUACACAUCGUAUGUACCGAAUCGGGUGGGUGGGGUGGGAAAGUAUUAUGUUACGCCGUUCGGAUCUGCACUUCCAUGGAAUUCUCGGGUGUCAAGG | 0.741 |
| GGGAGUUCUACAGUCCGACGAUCUGUGCUACACAUCGUAUGUACCGAAUCGGCCCCCCCGGGGCCCCCCCGGGGCCCCCCCGGGGAAAGUAUUAUGUUACGCCGUUCGGAUCUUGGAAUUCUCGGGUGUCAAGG | -2.3 |
| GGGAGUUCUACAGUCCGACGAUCUCCUGUGCUACACAUCGUAUGUACCGAAUCGGGGAAAAAGGGGUUUUUUUGGGGAGGGGAAAGUAUUAUGUUACGCCGUUCGGAUCUGCAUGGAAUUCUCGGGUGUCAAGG | 0.834 |
| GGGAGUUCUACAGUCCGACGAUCCAAGUCCUGUGCUACACAUCGUAUGUACCGAAUCGGUUUUGGGGUUUUGGUUUUGGAAAGUAUUAUGUUACGCCGUUCGGAUCUGCACUUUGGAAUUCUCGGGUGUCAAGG | -0.926 |
| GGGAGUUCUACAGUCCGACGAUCACCAUGCAGGUGGGCAUCUUUGGGAAGUGGGGCAAGGGGGGGAUAGGGAGGGGGGUUACACUUUGGGAACAGGUGGUCCCAGGUCGUUUCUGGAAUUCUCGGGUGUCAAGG | 1.31 |

Single results of other studies
| Substance | target or system | assay | test system | conditions | scale | measurement | value |
| --- | --- | --- | --- | --- | --- | --- | --- |
| PhoQ, residues 284 288 289 292 302 303 ASVMEA | PhoP, residues 12 14 15 18 19 TPLRH (Escherichia coli, UniProt P23836) | Sort-seq, item: YFP reporter | E. coli | PhoQ-PhoP variant library, added: 10 µM Mg2+ | relative to: high Mg2+ state, higher = stronger signaling | fold induction | 0.806 |
| NCCNCCNCCN | Plasmodium berghei | inhibitor | Huh-7, GFP-expressing, liver stage | 10 µM, 24 h | relative to: untreated control | infection rate | 96.1% |

A few entries again (study 2):
| Strand | log2 enrichment |
| --- | --- |
| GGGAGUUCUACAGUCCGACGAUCUGGCCCUGGUGGCAUGCGGGGAGGAAGAGGUGGCCUCAUGGAUCGUGGUGGUACCGGUGGAAUGUUCAGAGGUGGCCGUGGUGGAGACAGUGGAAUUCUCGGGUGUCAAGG | 0.254 |
| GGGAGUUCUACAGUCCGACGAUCACCAUGCAGGUGGGCAUCUUUGGGAAGUGGGGCAAAAAGGGGAUAGGGAGGGGGGUAACACUUUGGGAACAGGUGGUCCCAGGUCGUUUCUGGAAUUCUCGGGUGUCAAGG | 0.849 |
